Measured values of several laboratories.
Values joined by “and” are separate records of one study, mostly repeats; a detail may differ. ± marks the error that the study gave.
Organism: SARS-CoV-2

CC(C)CC(C(=O)N1CC2(CC1C#N)C(=O)Nc1ccccc12)N(C)C(=O)c1cc2c(F)cc(F)c(F)c2[nH]1 (stereo not drawn)
inhibition (viral replication; Vero E6; 3 µM): 96.3% and 94.6% and 96.4% and 86.2% and 95.8% and 95.1%

Clc1ccc(CN2CCCC3=CC4CC(CN5CCCCC45)C32)c(Cl)c1 (stereo not drawn)
antiviral activity (viral replication; concentration not given): inactive

CC(C)C(=O)OC[C@H]1O[C@@](C#N)(n2ccc(N)nc2=O)[C@H](O)[C@@H]1O
EC90 (viral replication, qRT-PCR of viral RNA; Caco-2, Washington): 3.2 ± 1.3 µM

COc1ccc(-c2cnc3[nH]cc(C#Cc4cccnc4)c3c2)cc1OC
viral infection (Calu-3; 5 µM): no effect

Cc1ccc(N2CC(N3CCC(C)(O)CC3)C2)cc1C(=O)NC1(c2ccc3c4c(cccc24)CC3)CC1
inhibition (viral replication; Vero C1008, wild type; 12.5 µM): 100%

O=C(c1ccc([N+](=O)[O-])c(-n2ccnc2)c1)N(c1cccc(Cl)c1)c1nc2ccccc2s1
selectivity index (A549-ACE2; reference: CC50 over EC50): > 7

CC(C)(C)NC(=O)[C@@H](c1cccnc1)N(C(=O)c1ccco1)c1ccc(C(C)(C)C)cc1
viral reduction (viral replication; Vero; 10 µM): 4.42%

Cc1oc2nc1C(=O)N[C@](C)(C(=O)OC(C)C)c1nc(c(C)o1)C(=O)N[C@](C)(C(=O)OC(C)C)c1nc(c(C)o1)C(=O)N[C@]2(C)C(=O)OC(C)C
inhibition (virucidal activity; Vero E6, NRC-03-nhCoV; 2.5 µM): 13%

O=C(NC1CCN(c2ncnc3[nH]cnc23)CC1)c1cccc(NS(=O)(=O)c2ccc(C(F)(F)F)cc2)c1
remaining activity (replicon RdRp activity; HeLa; 10 µM): 2.68%

Cc1ccc(N2CC3CC(C2)N3)cc1C(=O)NC1(c2ccc3c4c(cccc24)C(=O)N3C)CC1
inhibition (viral replication; Vero C1008, wild type; 0.005716 µM): 10%

Cc1oc2nc1C(=O)N[C@](C)(C(=O)NCCc1ccccc1)c1nc(c(C)o1)C(=O)N[C@](C)(C(=O)NCCc1ccccc1)c1nc(c(C)o1)C(=O)N[C@]2(C)C(=O)NCCc1ccccc1
inhibition (virucidal activity; Vero E6, NRC-03-nhCoV; 2.5 µM): 0%

CCCCCCCCCCCCCCCCOP(=O)(O)Oc1c2c(c(OP(=O)(O)OCCCCCCCCCCCCCCCC)c3c1C1CC3c3cc4c(cc31)C1CC4c3ccccc31)C1CC2c2cc3c(cc21)C1CC3c2ccccc21
IC50 (spike pseudoparticle entry; Caco-2): 40.6 µM

O=C(CCCCCCc1ccc(O)c(O)c1)c1c(O)cccc1O
selectivity index (Vero E6/TMPRSS2, WK-521 ancestral; reference: CC50 over EC50): 14.2

O=C1C(O)=C(Nc2cccc(C(F)(F)F)c2)C(=O)c2ccccc21
selectivity index (Calu-3 and HepG2; reference: HepG2 CC50 over antiviral EC50): 120 ± 30

C[C@@H]1O[C@@H](n2c3ccccc3c3c4c(c5c6ccccc6[nH]c5c32)CNC4=O)C[C@@H](N)[C@H]1O
EC50 (viral replication, refers to: dsRNA; Calu-3, Omicron BA.5): 0.12 µM

Oc1ccc(Br)cc1-c1nc2cc(C(F)(F)F)ccc2s1
viral RNA release reduction (SB2; 10 µM): 90%

CCC(C)OP(=O)(O)Oc1c2c(c(OP(=O)(O)OC(C)CC)c3c1C1CC3c3cc4c(cc31)C1CC4c3ccccc31)C1CC2c2cc3c(cc21)C1CC3c2ccccc21 (stereo not drawn)
IC50 (spike pseudoparticle entry; Caco-2): 16.1 µM

NC(Cc1cc(O)c(O)cc1O)C(=O)O (racemic)
selectivity index (Huh-7; reference: CC50 over EC50): inactive

CCCCCCCOP(=O)(O)Oc1c2c(c(OP(=O)(O)OCCCCCCC)c3c1C1CC3c3cc4c(cc31)C1CC4c3ccccc31)C1CC2c2cc3c(cc21)C1CC3c2ccccc21
IC50 (spike pseudoparticle entry; Caco-2): 1 µM

Cc1oc2nc1C(=O)N[C@](C)(C(=O)O)c1nc(c(C)o1)C(=O)N[C@](C)(C(=O)O)c1nc(c(C)o1)C(=O)N[C@]2(C)C(=O)O
inhibition (viral adsorption; Vero E6, NRC-03-nhCoV; 2.5 µM): 0%

CCn1ccc(-c2cc(-c3cnn(C)c3)cc([C@@H](C)NC(=O)c3cc(OCCN(C)C)ccc3C)c2)n1
EC50 fold change (viral replication; recombinant Y268H mutant; reference: wild type): 6 to 13 fold

COc1cccc2[nH]c(C(=O)N[C@@H](CC(C)C)C(=O)N[C@@H](C[C@@H]3CCNC3=O)C(=O)c3nc4ccccc4s3)cc12
EC99 (viral RNA, RT-qPCR; VeroE6, WK-521 (ancestral Wuhan)): 8.4 ± 0.23 µM

Cc1ccc(N2CC(N3CCC(C)(O)CC3)C2)cc1C(=O)NC1(c2ccc3c4c(cccc24)C(=O)N3C)CC1
inhibition (viral replication; Vero C1008, Omicron BA.5; 0.005716 µM): 0%

O=C[C@H](C[C@@H]1CCNC1=O)NC(=O)[C@H](Cc1cccc(F)c1)NC(=O)c1cc2ccccc2[nH]1
selectivity index (Vero C1008; reference: CC50 over EC50): > 139

CCC1OC(C2(C)CC(C)C(O)(C3(C)CCC(C(O)C4(O)OC(CC5(O)OC(C(C)C(O)CC6CCC(C)C(C(C)C(=O)O)O6)CCC5C)C(C)CC4C)O3)O2)CCC1(C)O (stereo not drawn)
viral replication (qRT-PCR viral RNA; Vero E6-hTMPRSS2; concentration not given): inhibited

CCCC/C=C/C(=O)N[C@@H](Cc1csc2ccccc12)C(=O)N[C@H]1COC(=O)[C@@H]2C[C@@H](C)CN2C(=O)[C@H](C)NC(=O)[C@@H]2CCCCN2C(=O)[C@@H]2CCCN2C1=O
RNA release (Huh-7 CLPP knock-out 2; concentration not given, 6 h, unit not given; reference: DMSO): 0.74 and 0.781 and 0.761

Cc1ccc(N2CCN(C)CC2)cc1C(=O)NC1(c2ccc3c4c(cccc24)CC3)CC1
inhibition (viral replication; Vero C1008, Omicron BA.5; 0.05144 µM): 0%

A few entries again:
CCCCCCCOP(=O)(O)Oc1c2c(c(OP(=O)(O)OCCCCCCC)c3c1C1CC3c3cc4c(cc31)C1CC4c3ccccc31)C1CC2c2cc3c(cc21)C1CC3c2ccccc21
IC50 (spike pseudoparticle entry; Caco-2): 1 µM

Cc1oc2nc1C(=O)N[C@](C)(C(=O)O)c1nc(c(C)o1)C(=O)N[C@](C)(C(=O)O)c1nc(c(C)o1)C(=O)N[C@]2(C)C(=O)O
inhibition (viral adsorption; Vero E6, NRC-03-nhCoV; 2.5 µM): 0%

CCn1ccc(-c2cc(-c3cnn(C)c3)cc([C@@H](C)NC(=O)c3cc(OCCN(C)C)ccc3C)c2)n1
EC50 fold change (viral replication; recombinant Y268H mutant; reference: wild type): 6 to 13 fold

COc1cccc2[nH]c(C(=O)N[C@@H](CC(C)C)C(=O)N[C@@H](C[C@@H]3CCNC3=O)C(=O)c3nc4ccccc4s3)cc12
EC99 (viral RNA, RT-qPCR; VeroE6, WK-521 (ancestral Wuhan)): 8.4 ± 0.23 µM
